Assay results collected from several papers.
Every numbered part comes from another study and shows a few of its results, in no order. Substitutions count along the parent as printed.

Study 1 — technique: RNA Bind-n-Seq; form: RNA; medium: in vitro; tested at: 365 nM; reference: no-protein control; direction: higher = stronger binding
Target: RNA binding protein fox-1 homolog 2, RRM domain, GST-SBP tag (RBFOX2, Homo sapiens, UniProt O43251-10, residues 100-194)
Notes: natural RNA segment, single round, ends assumed
Shared flanks, not repeated: GGGAGUUCUACAGUCCGACGAUC … UGGAAUUCUCGGGUGCCAA
Target sequence (chain): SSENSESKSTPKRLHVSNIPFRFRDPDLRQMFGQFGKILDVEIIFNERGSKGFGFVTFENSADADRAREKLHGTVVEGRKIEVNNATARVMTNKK
Strand	RBNS enrichment (R)
GUUGGGUGAAACAGAUUGUCCUAUCACAAAGCAGAAUUCAACAAAGUUAAAAUUUAAGAUAAGGUUUAAAAAGCUUUAUUCCUGUUUACAAUUUGGGAUGAGAAGCAGGC	1.17
UUUUCUAUUGUACUCUGCUUUAUCAAAGAAGUAAAACAUUUAAAUCGUACUACAGAAAUUAAGAUGUUGUCUUGCGAUCCUUAAUAAAUGAAUGAUUUCCCUUUAAUACG	1.11
CCGCUAUUUGCAAAUGGAUGCCCCAGUGUCCGGGAUGUGUGGCCAGCUGCUGCAGGCAGGACUCCAGCGUCAGGAUGUUGCCACUUGGAGUAUGAACAAUGGGCACGGGG	1.41
AACACUAAUUGCUGGGCCUCAACCCAAAAGCCCCCAAAGUGGCACUUCUGAGUUCCUGCUGAUGUUACAAGGGACCACACUUUUGAGAAUCUGUGCUUUAAGCUAAGGAA	0.281
CUUUUGGUUUCCCAAAGCAAUAUUUUACUUUUCAUUUAUUAUAGUUUGAAAGACAUUUUUCAUUGUUCCAUUACCUAUAGAAAUGGUAUUUCAUGACCUAGGGAAAAAGG	0.359
AGUUCGUUGUCGCCAUGCGGCUUUUGCUCAGUCUAGUAUUCUGCCUUGUUUUUCACAUUGGGAACCCUAACAUUACCAGGGAUGCUACUUACCACAAUUUGUAACCCUGA	0.555
ACUUGCCAGCCACCACAGGGCUCAUGAGGGGCUUGAACCCAUGUCGUGUGUCUCUACCACAGCUGACUCUCAGCUGGCUAAUGGAGAAAAUGUGAGGAAUUACCUGUCAA	0.334
CAGACCAGGACGCUUCCUCAAGCCCAGCCUUCUACAGAGAGUGUGAACGGUACAGCCCCGGCCUGACCCGGGGACCUUCAGCCUGGACACCCGGCAGCUUCUGGAGUUUG	0.508
UGAUUUUUCAUAGUUUUAACUAGAUUUCCAAGAUAUUUUGUGCAUUUGUUUCAACUGAAUUUUGGUGGUGUCAGUGCCAUUAUCUAGCACCCUGAUUUUUUUUUUUUUAC	1.14
UAGUGUGAGAUUUUUUAUUUCUAAAUUUUGUUGUAUCUUCUAUUACAUAAAUGCAUUGACAAUUAUAAAAUGCAAGUGUUUUUUGAAUGAUUUUAAGAAUUUGGCUUAAA	0.643
AUUUGAUGUGUUGCCUGGCAGGAUACUGCAAAGAACAUGGUUUAUUUUAAAAUUUAUAAACAAGUCACUUAAAUGCCAGUUGUCUGAAAAAUCUUAUAAGGUUUUACCCU	1.47
UGCUUGUCACCCAGUUGCCUUUAAACCAAAUUCUAACCAGCCUAUCCCCAGGUAGGGGGACGUUGGUUAUAUUCUGUUAGAGGGGGACGGUCGUAUUUUCCUCCCUACCC	0.359

Study 2 — technique: RNA Bind-n-Seq; form: RNA; medium: in vitro; tested at: 200 nM; notes: whole 134-nt RNA, ends assumed; with: 150 mM KCl; reference: input library; direction: higher = stronger binding
Target: Fragile X messenger ribonucleoprotein 1, C-terminal low-complexity region (Fmr1, Mus musculus, UniProt P35922)
Shared flanks, not repeated: GGGAGUUCUACAGUCCGACGAUC … UGGAAUUCUCGGGUGUCAAGG
Strand	log2 enrichment
CCUCAAGUCCUGUGCUACACAUCGUAUGUACCGAAUCGGUUUGGUGGUUUGGAAAGUAUUAUGUUACGCCGUUCGGAUCUGCACUUCCAG	-0.2
CUCAAGUCCUGUGCUACACAUCGUAUGUACCGAAUCGGAGGUUUUUUUGGUGGAAAGUAUUAUGUUACGCCGUUCGGAUCUGCACUUCCA	-0.305
UCCUGUGCUACACAUCGUAUGUACCGAAUCGGAAAAAAGGGAAAAAAGGGAAAAAAGGGAAAGUAUUAUGUUACGCCGUUCGGAUCUGCA	-0.248
AAGUCCUGUGCUACACAUCGUAUGUACCGAAUCGGGGAAAGGGGAAAGGGAAAGGGAAAGUAUUAUGUUACGCCGUUCGGAUCUGCACUU	0.445
UGAAUGCUGAGAAUGUUGCUGGUCACCAGAUUGCCUCUGAAACACAGAUCCUUGAGGGCUCUUUGGGAAUAUCUGUAAAGUCACACUGCA	-0.0649
UGGCCCUGGUGGCAUGCGGGGAGGAAGAGGUGGCCUCAUGGAUCGUGGUGGUCCCGGUGGAAUGUUCAGAGGUGGCCGUGGAGGAGACAG	-0.0381
AGUCCUGUGCUACACAUCGUAUGUACCGAAUCGGGGUUUUUGGGGAAAGGGGUGGGGAAAGUAUUAUGUUACGCCGUUCGGAUCUGCACU	0.537
UGGGAGGUGGAUUUUGUUUAUUUUUUUAGCUCAUUUCGAGGGGUGGGAAUUUUUUUUUAAUAUGUGUCAUGAAUAAAGUUGUUUUUGAAA	0.171
UCCUGUGCUACACAUCGUAUGUACCGAAUCGGGGAAAAAGGGGAAAAAGGGAAAAAGGGGAAAGUAUUAUGUUACGCCGUUCGGAUCUGC	0.0819
CCUGUGCUACACAUCGUAUGUACCGAAUCGGGGAAAAAAGGGGAAAAAAGGAAAAAAGGGAAAGUAUUAUGUUACGCCGUUCGGAUCUGC	-0.324
ACCAUGCAGGUGGGCAUCUUUGGGAAGUGGGGCAAGGGGGGGAUAGGGAGGGGGAAAACACUUUGGGAACAGGUGGUCCCAGGUCGUUUC	0.664
UUCCUCAAGUCCUGUGCUACACAUCGUAUGUACCGAAUCGGUGGUGGUGGAAAGUAUUAUGUUACGCCGUUCGGAUCUGCACUUCCAGCA	-0.306
CAAGUCCUGUGCUACACAUCGUAUGUACCGAAUCGGAAAAAAAGGAAAAAGGUGGAAAGUAUUAUGUUACGCCGUUCGGAUCUGCACUUC	-0.668
CAAGUCCUGUGCUACACAUCGUAUGUACCGAAUCGGAAAAAGGUUUGGAAAAAGGAAAGUAUUAUGUUACGCCGUUCGGAUCUGCACUUC	-0.989

Study 3 — technique: protein binding microarray; form: double-stranded DNA, one strand shown; medium: in vitro; tested at: not given; reference: not given; direction: higher = stronger binding
Target: Histone acetyltransferase KAT6A, winged helix 2, GST fusion (KAT6A, Homo sapiens, UniProt Q92794, residues 85-181)
Notes: 8-mer, flanks averaged, mean of 2 arrays, mostly near background
Residues (chain): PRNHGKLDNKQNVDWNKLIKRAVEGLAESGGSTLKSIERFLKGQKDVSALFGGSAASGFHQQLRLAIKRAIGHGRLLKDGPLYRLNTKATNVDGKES
Strand	E-score
AGACTCCA	-0.138
CACGTACG	-0.247
GGATACAA	-0.0234
TAAGATGA	-0.231
TGCTTGAA	0.19
ACAGCTTC	-0.134
CCAGCGCG	0.217
GCTATCTA	-0.0063
AAGGCAGA	-0.053
ACGAGAAC	0.0108
ACAGGAAC	-0.0287
ATGTGCCC	0.111
CGTAGGAC	0.157
ACCCGCCG	0.203
AATTATTG	0.0109
ACGGCATC	0.0672
ATAACTTC	0.0803
CGTGTAGA	-0.0525
ACACGCAT	0.0469
CCGGCTTA	0.155
CCCCTTAC	0.0625
AGAGCGGG	0.12
TCACTCGA	-0.0125
CCCCGGTC	0.14
GAAATGCA	-0.0341

Study 4 — technique: protein-binding microarray; form: double-stranded DNA, one strand shown; medium: in vitro; tested at: not given; direction: higher = stronger binding
Target: Protein C-ets-1 (ETS1, Homo sapiens, UniProt P14921, residues 1-441, full length assumed)
Notes: k-mer, scored over probes, only values ≥0.25
Residues (chain): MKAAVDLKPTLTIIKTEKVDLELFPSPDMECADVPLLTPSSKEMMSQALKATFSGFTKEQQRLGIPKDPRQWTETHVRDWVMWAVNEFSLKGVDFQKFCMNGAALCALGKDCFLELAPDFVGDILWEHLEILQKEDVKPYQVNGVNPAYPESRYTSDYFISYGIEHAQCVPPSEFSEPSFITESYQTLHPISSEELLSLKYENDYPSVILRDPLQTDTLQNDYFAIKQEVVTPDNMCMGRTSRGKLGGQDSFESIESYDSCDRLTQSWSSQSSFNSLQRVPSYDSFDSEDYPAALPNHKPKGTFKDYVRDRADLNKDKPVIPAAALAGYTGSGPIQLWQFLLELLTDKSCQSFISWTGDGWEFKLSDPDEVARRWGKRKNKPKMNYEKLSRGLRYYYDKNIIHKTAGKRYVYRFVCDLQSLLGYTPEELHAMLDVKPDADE
Strand	E-score
GAGCTTCC	0.406
CCGGCAGC	0.254
CCAGGATA	0.347
ACAGGAAA	0.479
CGGAAAAC	0.373
CAATTCCG	0.305
GCGGAAGA	0.401
CGTCTTCC	0.384
GTGCGGAA	0.402
AGAGGAAA	0.4
GCGGAACA	0.273
ATCCATCC	0.335
ATATTTCC	0.443
CCGGTCAG	0.31
GATCTTCC	0.296
CCGGGAAG	0.415
AGTTTCCC	0.317
CCCGGAAA	0.482
AGGTTTCC	0.356
TCCGAGGA	0.256
GCCCGGAA	0.463
GGATGCAA	0.386

Study 5 — target: CCNB3, cyclin fold, Cln2 fusion (human); technique: yeast growth competition, sequencing; medium: yeast; notes: weak parent motif; reference: not given; direction: higher = stronger binding
Starting sequence: SAMHD1 docking peptide (human); ASKSRVQLFKDDP; partner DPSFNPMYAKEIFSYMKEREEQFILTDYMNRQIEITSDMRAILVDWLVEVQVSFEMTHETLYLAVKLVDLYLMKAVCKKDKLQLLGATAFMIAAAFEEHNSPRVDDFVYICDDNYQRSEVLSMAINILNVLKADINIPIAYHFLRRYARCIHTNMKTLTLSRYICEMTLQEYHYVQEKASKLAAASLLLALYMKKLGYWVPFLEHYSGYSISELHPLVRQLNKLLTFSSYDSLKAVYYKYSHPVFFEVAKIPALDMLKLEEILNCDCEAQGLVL
Substitution	normalised enrichment score
ASKSRVQYFKDDP [L8Y]	0.0069
ASHSRVQLFKDDP [K3H]	0.0526
ASKARVQLFKDDP [S4A]	0.107
ADKSRVQLFKDDP [S2D]	-0.192
ASKSRVQFFKDDP [L8F]	-0.0596
ASKSRVQLLKDDP [F9L]	0.264
ASKSRVQCFKDDP [L8C]	-0.053
ASKKRVQLFKDDP [S4K]	-0.351
ASKSRIQLFKDDP [V6I]	-0.267
ASKRRVQLFKDDP [S4R]	0.0343
ASSSRVQLFKDDP [K3S]	-0.185
ASKSRVELFKDDP [Q7E]	-0.285
AHKSRVQLFKDDP [S2H]	0.196
ASKSRVQLFKFDP [D11F]	0.297
ASKSRVMLFKDDP [Q7M]	-0.486
ASNSRVQLFKDDP [K3N]	-0.401
ASWSRVQLFKDDP [K3W]	0.106
ASKSRVQLFDDDP [K10D]	-0.0377
AAKSRVQLFKDDP [S2A]	0.0748
ASKQRVQLFKDDP [S4Q]	-0.136
ASKSRVPLFKDDP [Q7P]	-0.225
ASKIRVQLFKDDP [S4I]	0.545
ASKSRVCLFKDDP [Q7C]	-0.121
ASKSRVQLFKRDP [D11R]	0.429
ASKSRVQLAKDDP [F9A]	0.0567

For quick reference, copied from above (study 5):
Substitution	normalised enrichment score
ASWSRVQLFKDDP [K3W]	0.106
ASKIRVQLFKDDP [S4I]	0.545
ASKSRVQLAKDDP [F9A]	0.0567
ASKSRVQLFKRDP [D11R]	0.429
ASKSRVPLFKDDP [Q7P]	-0.225
AAKSRVQLFKDDP [S2A]	0.0748
ASKSRVQCFKDDP [L8C]	-0.053
ASSSRVQLFKDDP [K3S]	-0.185
ASKQRVQLFKDDP [S4Q]	-0.136
ASKSRVQFFKDDP [L8F]	-0.0596
ASKSRVQLFKFDP [D11F]	0.297
ASKARVQLFKDDP [S4A]	0.107
ASKSRVQLFDDDP [K10D]	-0.0377
ASKSRVQYFKDDP [L8Y]	0.0069
